Results gathered from unrelated publications.
Protocols differ between the studies behind these lines. ± marks the error that the study gave.
F fusion protein: Fusion glycoprotein F0, fusion protein (F, Parainfluenza virus 5, UniProt P04849)
Sequence of UniProt P04849 (whole entry, looked up): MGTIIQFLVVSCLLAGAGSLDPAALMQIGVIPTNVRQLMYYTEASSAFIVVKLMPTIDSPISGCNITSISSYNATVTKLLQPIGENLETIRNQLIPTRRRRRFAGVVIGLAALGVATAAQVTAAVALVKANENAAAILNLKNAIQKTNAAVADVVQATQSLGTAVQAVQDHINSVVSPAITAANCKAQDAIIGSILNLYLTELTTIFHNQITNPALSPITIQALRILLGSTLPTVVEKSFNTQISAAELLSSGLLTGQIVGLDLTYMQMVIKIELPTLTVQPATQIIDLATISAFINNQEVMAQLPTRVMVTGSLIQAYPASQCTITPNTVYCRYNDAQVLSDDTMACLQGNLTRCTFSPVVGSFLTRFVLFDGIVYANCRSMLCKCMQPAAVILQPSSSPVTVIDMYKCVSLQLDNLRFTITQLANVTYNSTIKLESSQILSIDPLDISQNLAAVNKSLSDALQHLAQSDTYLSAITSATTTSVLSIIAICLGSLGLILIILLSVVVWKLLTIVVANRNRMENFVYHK
gag-pol integrase: Gag-Pol polyprotein, integrase (gag-pol, Human immunodeficiency virus type 1 group M subtype B, UniProt P04585)
Sequence of UniProt P16390 (whole entry, looked up): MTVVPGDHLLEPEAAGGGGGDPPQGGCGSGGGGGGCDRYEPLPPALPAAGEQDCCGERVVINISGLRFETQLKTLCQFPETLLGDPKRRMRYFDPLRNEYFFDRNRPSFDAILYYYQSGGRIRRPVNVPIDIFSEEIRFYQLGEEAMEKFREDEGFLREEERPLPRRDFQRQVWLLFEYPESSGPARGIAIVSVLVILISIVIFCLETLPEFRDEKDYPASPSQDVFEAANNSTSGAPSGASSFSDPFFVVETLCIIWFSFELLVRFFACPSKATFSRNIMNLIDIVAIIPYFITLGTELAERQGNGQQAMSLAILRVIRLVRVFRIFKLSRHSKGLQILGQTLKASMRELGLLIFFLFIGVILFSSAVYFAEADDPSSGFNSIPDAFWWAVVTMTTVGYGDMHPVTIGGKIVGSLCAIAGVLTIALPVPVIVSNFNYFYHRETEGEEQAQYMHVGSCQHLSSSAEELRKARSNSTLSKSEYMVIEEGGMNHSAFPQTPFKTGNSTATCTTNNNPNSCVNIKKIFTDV
Sequence of UniProt O43497 (whole entry, looked up): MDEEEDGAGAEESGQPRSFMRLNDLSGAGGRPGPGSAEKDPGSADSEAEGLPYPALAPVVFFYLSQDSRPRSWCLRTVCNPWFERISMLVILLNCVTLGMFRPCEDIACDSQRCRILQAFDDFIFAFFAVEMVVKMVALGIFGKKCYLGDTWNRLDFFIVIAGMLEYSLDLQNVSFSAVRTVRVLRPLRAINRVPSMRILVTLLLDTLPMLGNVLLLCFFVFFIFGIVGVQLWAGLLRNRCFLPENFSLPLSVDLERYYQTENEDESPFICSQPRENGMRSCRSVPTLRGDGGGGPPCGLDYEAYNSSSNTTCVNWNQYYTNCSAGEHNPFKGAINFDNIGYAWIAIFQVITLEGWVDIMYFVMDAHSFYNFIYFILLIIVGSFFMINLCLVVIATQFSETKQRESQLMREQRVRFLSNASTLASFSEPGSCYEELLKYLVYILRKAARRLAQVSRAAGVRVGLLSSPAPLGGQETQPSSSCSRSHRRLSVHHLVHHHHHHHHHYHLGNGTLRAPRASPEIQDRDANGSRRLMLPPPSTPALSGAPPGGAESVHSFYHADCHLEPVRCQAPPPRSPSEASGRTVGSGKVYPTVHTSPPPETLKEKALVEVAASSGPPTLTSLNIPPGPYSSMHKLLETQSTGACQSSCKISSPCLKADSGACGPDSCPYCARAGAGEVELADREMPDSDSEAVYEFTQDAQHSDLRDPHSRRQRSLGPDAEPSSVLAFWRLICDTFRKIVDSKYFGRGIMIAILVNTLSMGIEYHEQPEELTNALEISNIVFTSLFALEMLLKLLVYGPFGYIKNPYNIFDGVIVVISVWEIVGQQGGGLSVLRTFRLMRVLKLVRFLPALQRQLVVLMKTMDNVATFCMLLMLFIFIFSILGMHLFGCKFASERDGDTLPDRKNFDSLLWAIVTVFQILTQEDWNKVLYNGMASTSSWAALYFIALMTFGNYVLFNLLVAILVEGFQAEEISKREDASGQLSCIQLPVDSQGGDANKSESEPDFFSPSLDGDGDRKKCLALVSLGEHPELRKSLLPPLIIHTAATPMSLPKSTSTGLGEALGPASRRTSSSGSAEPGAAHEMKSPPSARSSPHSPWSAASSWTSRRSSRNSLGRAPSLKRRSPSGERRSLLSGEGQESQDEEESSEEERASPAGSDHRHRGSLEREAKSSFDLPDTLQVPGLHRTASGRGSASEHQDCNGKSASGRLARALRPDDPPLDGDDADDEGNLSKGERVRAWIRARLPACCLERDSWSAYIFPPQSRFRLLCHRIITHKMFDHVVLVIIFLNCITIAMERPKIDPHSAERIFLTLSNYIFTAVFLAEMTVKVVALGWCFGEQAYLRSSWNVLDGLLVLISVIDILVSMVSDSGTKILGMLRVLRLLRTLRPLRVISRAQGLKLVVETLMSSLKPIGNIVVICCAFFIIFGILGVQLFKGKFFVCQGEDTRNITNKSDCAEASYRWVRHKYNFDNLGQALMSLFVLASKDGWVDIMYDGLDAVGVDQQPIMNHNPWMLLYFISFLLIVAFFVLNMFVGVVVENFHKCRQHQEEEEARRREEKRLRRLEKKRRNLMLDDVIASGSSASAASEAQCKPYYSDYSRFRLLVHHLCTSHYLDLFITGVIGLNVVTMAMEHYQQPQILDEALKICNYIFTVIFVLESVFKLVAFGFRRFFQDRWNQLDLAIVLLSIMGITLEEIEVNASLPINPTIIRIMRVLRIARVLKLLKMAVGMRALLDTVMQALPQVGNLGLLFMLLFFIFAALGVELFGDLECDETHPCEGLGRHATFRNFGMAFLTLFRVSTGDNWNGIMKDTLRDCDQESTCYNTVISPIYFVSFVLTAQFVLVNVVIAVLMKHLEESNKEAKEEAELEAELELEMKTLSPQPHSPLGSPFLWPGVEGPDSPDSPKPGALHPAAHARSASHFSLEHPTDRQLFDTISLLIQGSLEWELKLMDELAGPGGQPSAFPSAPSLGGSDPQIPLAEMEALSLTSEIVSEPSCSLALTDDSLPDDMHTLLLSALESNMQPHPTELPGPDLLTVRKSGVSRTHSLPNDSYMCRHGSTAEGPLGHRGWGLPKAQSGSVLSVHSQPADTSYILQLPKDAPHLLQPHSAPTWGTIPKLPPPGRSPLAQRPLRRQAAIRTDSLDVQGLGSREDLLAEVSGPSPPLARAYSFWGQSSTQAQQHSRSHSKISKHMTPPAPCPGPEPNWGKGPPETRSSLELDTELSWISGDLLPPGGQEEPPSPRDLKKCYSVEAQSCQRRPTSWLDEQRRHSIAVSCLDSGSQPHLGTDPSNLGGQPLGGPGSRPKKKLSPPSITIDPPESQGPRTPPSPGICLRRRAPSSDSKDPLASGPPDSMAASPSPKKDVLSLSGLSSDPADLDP
Sequence of UniProt P32300 (whole entry, looked up): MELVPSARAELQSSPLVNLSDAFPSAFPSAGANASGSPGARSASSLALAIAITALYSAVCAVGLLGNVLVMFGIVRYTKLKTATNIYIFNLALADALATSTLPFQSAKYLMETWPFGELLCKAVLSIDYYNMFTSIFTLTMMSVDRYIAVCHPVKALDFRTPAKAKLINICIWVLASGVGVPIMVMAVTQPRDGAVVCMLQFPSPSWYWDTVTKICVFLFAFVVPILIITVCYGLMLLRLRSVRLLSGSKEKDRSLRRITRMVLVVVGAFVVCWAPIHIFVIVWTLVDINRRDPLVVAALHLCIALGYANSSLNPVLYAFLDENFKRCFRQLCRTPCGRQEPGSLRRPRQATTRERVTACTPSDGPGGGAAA
Sequence of UniProt P22001 (whole entry, looked up): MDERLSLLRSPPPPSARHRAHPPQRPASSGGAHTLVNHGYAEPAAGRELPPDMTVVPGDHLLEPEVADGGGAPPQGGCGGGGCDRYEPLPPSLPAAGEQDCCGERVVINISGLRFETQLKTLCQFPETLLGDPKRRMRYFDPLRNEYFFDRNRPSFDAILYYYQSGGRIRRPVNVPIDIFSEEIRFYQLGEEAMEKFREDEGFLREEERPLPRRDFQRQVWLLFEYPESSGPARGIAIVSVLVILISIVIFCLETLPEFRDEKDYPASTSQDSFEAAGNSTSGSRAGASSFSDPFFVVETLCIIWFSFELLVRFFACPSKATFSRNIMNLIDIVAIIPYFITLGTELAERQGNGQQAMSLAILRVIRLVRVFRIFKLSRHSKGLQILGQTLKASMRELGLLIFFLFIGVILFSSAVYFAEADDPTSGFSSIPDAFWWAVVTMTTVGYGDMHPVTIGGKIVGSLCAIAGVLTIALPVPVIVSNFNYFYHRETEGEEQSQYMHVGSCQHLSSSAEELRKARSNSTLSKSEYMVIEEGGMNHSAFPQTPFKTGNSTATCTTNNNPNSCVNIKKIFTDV

Compound	target	assay	test system	conditions	IC50 [nM]
CC[C@H](C)[C@H](NC(=O)[C@H](C)NC(=O)[C@H](CO)NC(=O)[C@H](CC(C)C)NC(=O)[C@H](Cc1ccc(O)cc1)NC(=O)[C@@H](NC(=O)[C@H](CC(=O)O)NC(=O)[C@H](CO)NC(=O)[C@H](CCC(N)=O)NC(=O)[C@H](C)NC(=O)[C@H](CC(C)C)NC(=O)[C@H](Cc1c[nH]cn1)NC(=O)[C@H](CCC(N)=O)NC(=O)[C@H](CC(C)C)NC(=O)[C@H](C)NC(=O)[C@H](CC(=O)O)NC(=O)[C@H](CO)NC(=O)[C@H](CC(C)C)NC(=O)[C@H](CO)NC(=O)[C@H](CCCCN)NC(=O)[C@H](CC(N)=O)NC(=O)[C@@H](NC(=O)[C@H](C)NC(=O)[C@H](C)NC(=O)[C@H](CC(C)C)NC(=O)[C@H](CC(N)=O)NC(=O)[C@H](CCC(N)=O)NC(=O)[C@H](CO)NC(=O)[C@H](Cc1c[nH]c2ccccc12)NC(=O)[C@H](CC(=O)O)NC(=O)[C@H](CC(C)C)NC(=O)[C@@H]1CCCN1C(=O)[C@H](CC(=O)O)NC(=O)[C@@H](NC(=O)[C@H](CO)NC(=O)[C@H](CC(C)C)NC(=O)[C@@H](NC(=O)[C@H](CCC(N)=O)NC(=O)[C@H](CO)NC(=O)[C@H](CO)NC(=O)[C@H](CCC(=O)O)NC(=O)[C@H](CC(C)C)NC(=O)[C@@H](N)CCCCN)[C@@H](C)CC)[C@@H](C)CC)C(C)C)[C@@H](C)O)C(=O)O	F fusion protein	cell-cell fusion, inhibitor, luciferase reporter	Vero plus BSR-T7 cells	6 h, 37 °C, added: SV5 F and HN	146 ± 13
CC[C@H](C)[C@H](NC(=O)[C@H](CCCNC(=N)N)NC(=O)[C@H](Cc1ccccc1)NC(=O)[C@H](Cc1c[nH]cn1)NC(=O)[C@@H](NC(=O)[C@H](Cc1ccccc1)NC(=O)[C@H](CC(C)C)NC(=O)[C@H](CC(C)C)NC(=O)[C@H](CCC(N)=O)NC(=O)[C@H](CCC(N)=O)NC(=O)[C@H](CC(C)C)NC(=O)[C@@H]1CCCC=CCCC[C@H](NC(=O)[C@H](CCC(=O)O)NC(C)=O)C(=O)N[C@@H]([C@@H](C)CC)C(=O)N[C@@H]([C@@H](C)CC)C(=O)N[C@@H](CCCNC(=N)N)C(=O)N1)[C@@H](C)CC)C(=O)NCC(N)=O	gag-pol integrase	strand transfer, inhibitor	HIV-1		1100 ± 80
CC[C@H](C)[C@@H]1NC(=O)[C@@H](NC(=O)[C@H](CO)NC(=O)[C@@H](N)CCCNC(=N)N)CSSC[C@@H](C(N)=O)NC(=O)[C@H]([C@@H](C)O)NC(=O)CNC(=O)[C@@H]2CSSC[C@@H]3NC(=O)[C@H](CCC(N)=O)NC(=O)[C@H](Cc4ccccc4)NC(=O)[C@H](C)NC(=O)[C@H]([C@@H](C)O)NC(=O)[C@H](CSSC[C@H](NC(=O)[C@H](Cc4ccccc4)NC(=O)[C@H](CO)NC(=O)[C@H](CC(C)C)NC(=O)[C@H](CCCNC(=N)N)NC(=O)[C@H](Cc4ccc(O)cc4)NC(=O)[C@H](CCCCN)NC(=O)[C@H](CCSC)NC(=O)[C@H](CO)NC(=O)[C@H](Cc4c[nH]cn4)NC(=O)[C@H](CCCCN)NC3=O)C(=O)N[C@@H](CCCNC(=N)N)C(=O)N[C@@H](CCCCN)C(=O)N[C@@H]([C@@H](C)O)C(=O)N2)NC(=O)[C@H](CCCNC(=N)N)NC(=O)[C@H](CO)NC(=O)[C@H](CCCCN)NC(=O)[C@@H]2CCCN2C(=O)[C@H]([C@@H](C)CC)NC(=O)[C@H]([C@@H](C)O)NC(=O)[C@H](CC(=O)O)NC1=O	Potassium voltage-gated channel subfamily A member 3 (Kcna3, Mus musculus, UniProt P16390)	ion current, inhibitor, patch clamp			0.035
CC(C)C[C@@H]1NC(=O)[C@H](Cc2c[nH]c3ccccc23)NC(=O)[C@H](Cc2ccc(O)cc2)NC(=O)[C@H](CCCNC(=N)N)NC(=O)[C@@H](NC(=O)[C@@H](N)CCC(=O)O)CSSC[C@@H]2NC(=O)[C@@H]3CSSC[C@@H](C(=O)N[C@H](C(=O)N[C@@H](Cc4c[nH]c5ccccc45)C(=O)N[C@@H](CC(=O)O)C(=O)NCC(=O)N[C@H](C(=O)N[C@@H](Cc4ccccc4)C(=O)N[C@@H](CO)C(=O)O)[C@@H](C)O)C(C)C)NC(=O)[C@H](Cc4c[nH]c5ccccc45)NC(=O)CNC(=O)[C@H](Cc4c[nH]cn4)NC(=O)[C@H](CCCNC(=N)N)NC(=O)[C@H](CCCNC(=N)N)NC(=O)[C@H](CO)NC(=O)[C@H](CSSC[C@H](NC(=O)CNC(=O)CNC1=O)C(=O)N[C@@H](CO)C(=O)N[C@@H](C)C(=O)NCC(=O)N[C@@H](CCC(N)=O)C(=O)N[C@@H]([C@@H](C)O)C(=O)N3)NC(=O)[C@H](C(C)C)NC(=O)[C@H](CC(C)C)NC(=O)[C@H](Cc1c[nH]cn1)NC(=O)[C@H](CCCCN)NC2=O	Voltage-dependent T-type calcium channel subunit alpha-1G (CACNA1G, Homo sapiens, UniProt O43497)	calcium signal, antagonist, fluorescence			220
C=CCCC[C@](C)(N)C(=O)N[C@@H](C)C(=O)N[C@@H](Cc1ccc(O)cc1)C(=O)N[C@@H](Cc1ccccc1)C(=O)N[C@@](C)(CCCC=C)C(=O)N[C@@H](CC(C)C)C(=O)N[C@@H](CCCCN)C(=O)N[C@@H](CC(C)C)C(=O)N[C@@H](C)C(=O)NCC(=O)N[C@@H](CCCNC(=N)N)C(=O)N[C@@H](Cc1c[nH]c2ccccc12)C(N)=O	gag-pol integrase	integrase 3'-processing, inhibitor			22000 ± 8000
O=C(COc1ccc2c(c1O)C(=O)c1ccccc1C2=O)c1ccccc1	Gag-Pol polyprotein, RT RNase H activity (gag-pol, Human immunodeficiency virus 1, UniProt P03366, K702N)	enzyme activity, inhibitor			> 100000
CC[C@H](C)[C@@H]1NC(=O)[C@@H](NC(=O)[C@H](CO)NC(=O)[C@@H](N)CCCNC(=N)N)CSSC[C@@H](C(=O)O)NC(=O)[C@H]([C@@H](C)O)NC(=O)CNC(=O)[C@@H]2CSSC[C@@H]3NC(=O)[C@H](CCC(N)=O)NC(=O)[C@H](Cc4ccccc4)NC(=O)[C@H](C)NC(=O)[C@H]([C@@H](C)O)NC(=O)[C@H](CSSC[C@H](NC(=O)[C@H](Cc4ccccc4)NC(=O)[C@H](CO)NC(=O)[C@H](CC(C)C)NC(=O)[C@H](CCCNC(=N)N)NC(=O)[C@H](Cc4ccc(O)cc4)NC(=O)[C@H](CCCCN)NC(=O)[C@H](CCSC)NC(=O)[C@H](CO)NC(=O)[C@H](Cc4cnc[nH]4)NC(=O)[C@H](CCCCN)NC3=O)C(=O)N[C@@H](CCCNC(=N)N)C(=O)N[C@@H](CCCCN)C(=O)N[C@@H]([C@@H](C)O)C(=O)N2)NC(=O)[C@H](CCCNC(=N)N)NC(=O)[C@H](CO)NC(=O)[C@H](CCCCN)NC(=O)[C@@H]2CCCN2C(=O)[C@H]([C@@H](C)CC)NC(=O)[C@H]([C@@H](C)O)NC(=O)[C@H](CC(=O)O)NC1=O	Potassium voltage-gated channel subfamily A member 3 (KCNA3, Homo sapiens, UniProt P22001)	ion current, inhibitor		pH 7.4, oocytes	0.25
CC[C@H](C)[C@H](NC(=O)[C@H](C)NC(=O)[C@H](CCC(=O)O)NC(C)=O)C(=O)N[C@H](C(=O)N[C@@H](CCCNC(=N)N)C(=O)N[C@H](C(=O)N[C@H]1CCCC=CCCC[C@@H](C(=O)N[C@@H](Cc2ccccc2)C(=O)N[C@H](C(=O)N[C@@H](Cc2c[nH]cn2)C(=O)N[C@@H](Cc2ccccc2)C(=O)N[C@@H](CCCNC(=N)N)C(=O)N[C@H](C(=O)NCC(N)=O)[C@@H](C)CC)[C@@H](C)CC)NC(=O)[C@H](CC(C)C)NC(=O)[C@H](CCC(N)=O)NC(=O)[C@H](CCC(N)=O)NC1=O)[C@@H](C)CC)[C@@H](C)CC	gag-pol integrase	strand transfer, inhibitor	HIV-1		1900 ± 200
NC(=O)[C@H](CO)NC(=O)[C@@H]1CCCN1C(=O)[C@H](Cc1ccc(O)cc1)NC(=O)CNC(=O)[C@H](Cc1ccccc1)NC(=O)[C@@H](CCCCN=C=S)NC(=O)[C@@H](N)Cc1ccc(O)cc1	Delta-type opioid receptor (Oprd1, Mus musculus, UniProt P32300)	radioligand binding	CHO cells	added: 0.15 nM [3H]DPDPE	97.1 ± 4.9
C[C@H](NC(=O)[C@H](Cc1ccncc1)NC(=O)[C@H](C)NC(=O)[C@H](CCCCN)NC(=O)[C@H](CCCNC(=N)N)NC(=O)[C@H](CCCCN)NC(=O)[C@H](C)NC(=O)[C@@H](N)CO)C(=O)N[C@@H](CCCCN)C(=O)N[C@@H](Cc1ccccc1)C(=O)N[C@@H](CCCCN)C(=O)N[C@@H](C)C(=O)N[C@@H](CCN)C(N)=O	Genome polyprotein, NS2B-NS3 protease (ZIKV, UniProt A0A024B7W1)	protease activity, inhibitor, FRET	Zika virus		3800 ± 1100
O=C1c2ccc(O)c(O)c2C(=O)N1Cc1ccc(F)c(Cl)c1	Gag-Pol polyprotein, integrase (gag-pol, Human immunodeficiency virus 1, UniProt P12497, Y1290R)	enzyme activity, inhibitor			1100 ± 200
CC[C@H](C)[C@H](NC(=O)[C@H](C)NC(=O)[C@H](CO)NC(=O)[C@H](CC(C)C)NC(=O)[C@H](Cc1ccc(O)cc1)NC(=O)[C@@H](NC(=O)[C@H](CC(=O)O)NC(=O)[C@H](CO)NC(=O)[C@H](CCC(N)=O)NC(=O)[C@H](C)NC(=O)[C@H](CC(C)C)NC(=O)[C@H](Cc1c[nH]cn1)NC(=O)[C@H](CCC(N)=O)NC(=O)[C@H](CC(C)C)NC(=O)[C@H](C)NC(=O)[C@H](CC(=O)O)NC(=O)[C@H](CO)NC(=O)[C@H](CC(C)C)NC(=O)[C@H](CO)NC(=O)[C@H](CCCCN)NC(=O)[C@H](CC(N)=O)NC(=O)[C@@H](NC(=O)[C@H](C)NC(=O)[C@H](C)NC(=O)[C@H](CC(C)C)NC(=O)[C@H](CC(N)=O)NC(=O)[C@H](CCC(N)=O)NC(=O)[C@H](CO)NC(=O)[C@@H](NC(=O)[C@H](CC(=O)O)NC(=O)[C@H](CC(C)C)NC(=O)[C@@H]1CCCN1C(=O)[C@H](CC(=O)O)NC(=O)[C@@H](NC(=O)[C@H](CO)NC(=O)[C@H](CC(C)C)NC(=O)[C@@H](NC(=O)[C@H](CCC(N)=O)NC(=O)[C@H](CO)NC(=O)[C@H](CO)NC(=O)[C@H](CCC(=O)O)NC(=O)[C@H](CC(C)C)NC(=O)[C@@H](N)CCCCN)[C@@H](C)CC)[C@@H](C)CC)C(C)C)C(C)C)[C@@H](C)O)C(=O)O	F fusion protein	cell-cell fusion, inhibitor, luciferase reporter	Vero plus BSR-T7 cells	6 h, 37 °C, added: SV5 F and HN	58 ± 6

Repeated from above:
Compound	target	assay	test system	conditions	IC50 [nM]
C[C@H](NC(=O)[C@H](Cc1ccncc1)NC(=O)[C@H](C)NC(=O)[C@H](CCCCN)NC(=O)[C@H](CCCNC(=N)N)NC(=O)[C@H](CCCCN)NC(=O)[C@H](C)NC(=O)[C@@H](N)CO)C(=O)N[C@@H](CCCCN)C(=O)N[C@@H](Cc1ccccc1)C(=O)N[C@@H](CCCCN)C(=O)N[C@@H](C)C(=O)N[C@@H](CCN)C(N)=O	Genome polyprotein, NS2B-NS3 protease (ZIKV, UniProt A0A024B7W1)	protease activity, inhibitor, FRET	Zika virus		3800 ± 1100
